Literature values, collected from citations in different studies.
Compare with care: the assays were run in different laboratories. Several values in a cell are separate wells, animals, samples, runs or records. ± gives the spread as reported.

Structure (SMILES) | tested on | test | test system | conditions | scale | quantity | value
O=c1n(CCCN2CCN(c3cccc(Cl)c3)CC2)nc2ccccn12 |  |  | dog |  |  | fraction unbound | 0.066
O=C(O)C(F)(F)C(F)(F)C(F)(F)C(F)(F)C(F)(F)F | CYP1A2 | inhibitor |  | Tox21 screening |  | IC50 | inactive
COc1ccc2c(c1)c(CC(=O)O)c(C)n2C(=O)c1ccc(Cl)cc1 |  |  | mouse |  |  | fraction unbound | 0.052
CC(C(=O)O)c1ccc(-c2ccccc2)c(F)c1 (stereo not shown) |  |  | human | dose not given |  | volume of distribution | 0.1 L/kg
O=C(O)C(F)(F)C(F)(F)C(F)(F)C(F)(F)C(F)(F)C(F)(F)C(F)(F)C(F)(F)F | CYP1A2 | inhibitor |  | Tox21 screening |  | IC50 | inactive
C[C@@H](O[C@H]1OCCN(Cc2n[nH]c(=O)[nH]2)[C@H]1c1ccc(F)cc1)c1cc(C(F)(F)F)cc(C(F)(F)F)c1 |  |  | human |  |  | fraction unbound | 0.001
O=C(O)C(F)(F)C(F)(F)C(F)(F)C(F)(F)C(F)(F)C(F)(F)C(F)(F)C(F)(F)C(F)(F)C(F)(F)F | CYP2D6 |  |  | concentration not given |  | activity | inactive
O=C(O)[C@@H](c1ccccc1)[C@@H]1CCCCN1 |  |  | human, by CES1 genotype, plasma | oral, 10 mg methylphenidate, single dose, median |  | Tmax | 1.8 h
CC(C)NCC(O)COc1cccc2ccccc12 (stereo not shown) |  |  | mouse |  |  | fraction unbound | 0.013
O=S(=O)(O)C(F)(F)C(F)(F)C(F)(F)C(F)(F)C(F)(F)C(F)(F)F | CYP2C9 | inhibitor |  |  |  | IC50 | 1.08 ± 0.36 µM
Cc1nnc2n1-c1ccc(Cl)cc1C(c1ccccc1Cl)=NC2 | CYP3A5 | substrate, measured: 1-hydroxy metabolite formation |  |  |  | Km | 20.4 µM
C[Si]1(C)O[Si](C)(C)O[Si](C)(C)O[Si](C)(C)O[Si](C)(C)O1 | Cyprinus carpio |  |  | concentration not given, reanalysed data |  | bioconcentration factor | 625 L/kg wet weight
O=S(=O)(O)C(F)(F)C(F)(F)C(F)(F)C(F)(F)C(F)(F)C(F)(F)C(F)(F)C(F)(F)F | CYP2D6 | inhibitor |  | Tox21 screening |  | IC50 | 33.6 ± 1.93 µM
Cc1ncc2n1-c1ccc(Cl)cc1C(c1ccccc1F)=NC2 | CYP3A5 | 1-hydroxylation, substrate |  |  |  | Km | 4.16 µM
CCCCCOc1ccc(-c2ccc(-c3ccc(C(=O)N[C@H]4C[C@@H](O)[C@@H](O)NC(=O)[C@@H]5[C@@H](O)[C@@H](C)CN5C(=O)[C@H]([C@@H](C)O)NC(=O)[C@H]([C@H](O)[C@@H](O)c5ccc(O)cc5)NC(=O)[C@@H]5C[C@@H](O)CN5C(=O)[C@H]([C@@H](C)O)NC4=O)cc3)cc2)cc1 |  |  | human, severe hepatic impairment | 50 mg single dose |  | volume of distribution | 50.8 ± 17 L
c1ccc2c(c1)Cc1ccccc1-2 |  |  | zebrafish embryos, whole embryo | 415.6 ng/well, 48 hpf, single exposure |  | amount in tissue | 3.94 ng/well and 3.83 ng/well and 4.85 ng/well
CN1CCCC(n2nc(Cc3ccc(Cl)cc3)c3ccccc3c2=O)CC1 (stereo not shown) |  |  | dog |  |  | fraction unbound | 0.011
O=S(=O)(O)C(F)(F)C(F)(F)C(F)(F)C(F)(F)F | CYP2C9 | inhibitor |  | Tox21 screening |  | IC50 | 23 ± 2.52 µM
CCCCCc1cc(O)c2c(c1)OC(C)(C)[C@@H]1CCC(C)=C[C@@H]21 | CYP2C9, human | enzyme activity, inhibitor | human liver microsomes | 10 µM |  | inhibition | inhibited
NC12CC3CC(CC(C3)C1)C2 |  |  | dog |  |  | fraction unbound | 0.218
Cn1nc(C(F)(F)F)cc1C(=O)Nc1ccc(S(=O)(=O)N2CCCCC2)cc1 | measles virus |  | Vero |  | reference: CC50 over EC50 | selectivity index | 14200
COCCOC(=O)C1=C(C)NC(C)=C(C(=O)OC(C)C)C1c1cccc([N+](=O)[O-])c1 (stereo not shown) |  |  | mouse |  |  | fraction unbound | 0.007
COC(=O)[C@H](c1ccccc1)[C@H]1CCCCN1 |  |  | human, CES1 wild type, plasma | oral, 10 mg methylphenidate, single dose after breakfast, median |  | AUC(0-inf) | 21.4 µg·h/L
O=C(O)C(F)(F)C(F)(F)C(F)(F)C(F)(F)C(F)(F)C(F)(F)C(F)(F)F | CYP2D6 | inhibitor |  | Tox21 screening |  | IC50 | inactive
COC(=O)C1=C(C)NC(C)=C(C(=O)OCCN(C)Cc2ccccc2)C1c1cccc([N+](=O)[O-])c1 (stereo not shown) |  |  | human |  |  | fraction unbound | 0.006
